{"data": "Results of several laboratories", "FFAR4": "Free fatty acid receptor 4 (FFAR4, Homo sapiens, UniProt Q5NUL3)", "NADH dehydrogenase [ubiquinone] iron-sulfur protein 7, mitochondrial/NADH dehydrogenase [ubiquinone] iron-sulfur protein 2, mitochondrial/MT-ND1": "NADH dehydrogenase [ubiquinone] iron-sulfur protein 7, mitochondrial/NADH dehydrogenase [ubiquinone] iron-sulfur protein 2, mitochondrial/MT-ND1 (Homo sapiens, UniProt O75251+O75306+P03886)", "TRPM8": "Transient receptor potential cation channel subfamily M member 8 (TRPM8, Homo sapiens, UniProt Q7Z2W7)", "Maoa": "Amine oxidase [flavin-containing] A (Maoa, Rattus norvegicus, UniProt P21396)", "Kir3.1/Kir3.2": "Kir3.1/Kir3.2 (Homo sapiens, UniProt P48051+P48549)", "GAP50": "Glideosome-associated protein 50 (GAP50, Plasmodium falciparum, UniProt Q8I2X3)", "note": "“And” joins repeats or separate records; there may be more than shown. ± marks the error that the study gave."}
{"Compound": "O=C(Nc1ncnc2c1ncn2[C@@H]1O[C@@H]2COP(=O)(O)OC2C1O)c1ccccc1 (stereo in doubt)", "target": "anti-cAMP antibody", "assay": "antibody binding, competitive cAMP EIA", "setting": "concentration not given, acetylated samples", "how to read": "relative to: EC50 cAMP over EC50 cpd, higher = stronger binding", "quantity": "relative binding affinity", "value": 0.006}
{"Compound": "Clc1ccc(C(c2c[nH]c3ccccc23)c2c[nH]c3ccccc23)cc1", "target": "Nuclear receptor subfamily 4 group A member 2, LBD (Homo sapiens, UniProt P43354)", "assay": "reporter gene, Gal4 hybrid reporter", "setting": "10 µM", "how to read": "relative to: vehicle", "quantity": "activation", "value": "1.24 fold"}
{"Compound": "CCCCCCNc1[nH]c(=O)[nH]c(=O)c1Br", "target": "FFAR4", "assay": "agonist, β-arrestin recruitment", "system": "CHO cells", "setting": "10 µM", "quantity": "activation", "value": "0%"}
{"Compound": "NC(=O)NO", "target": "NADH dehydrogenase [ubiquinone] iron-sulfur protein 7, mitochondrial/NADH dehydrogenase [ubiquinone] iron-sulfur protein 2, mitochondrial/MT-ND1", "assay": "complex I-dependent respiration, Seahorse XF96", "system": "HCT-116", "setting": "10 µM, 24 h", "how to read": "relative to: control", "quantity": "oxygen consumption rate", "value": "84.7 ± 7.9%"}
{"Compound": "O=C(NC1CCC1)c1ccc2nc(-c3cccc(NS(=O)(=O)NCCN4CCCCC4)c3)cn2c1", "target": "Protein ENL (MLLT1, Homo sapiens, UniProt Q03111)", "assay": "degrader, immunoblot, measured: MLLT1", "setting": "10 µM, 0 h", "how to read": "relative to: DMSO control", "quantity": "protein level", "value": "93%"}
{"Compound": "COc1ccc(C(=O)Nc2sc3c(c2C(N)=O)CCCC3)cc1OC", "target": "TRPM8", "assay": "antagonist", "system": "HEK293", "setting": "5 µM", "how to read": "relative to: control", "quantity": "remaining activity", "value": "103 ± 12.8%"}
{"Compound": "O=c1cc(NCCc2ccccc2)[nH]c(=O)[nH]1", "target": "FFAR4", "assay": "agonist, β-arrestin recruitment", "system": "CHO cells", "setting": "10 µM", "quantity": "activation", "value": "2 ± 1%"}
{"Compound": "NCc1ccc(C(F)(F)F)cc1", "target": "Maoa", "assay": "substrate", "setting": "pH 7.5, 25 °C", "quantity": "kcat of deuterated substrate", "value": "0.667 ± 0.0117 s⁻¹"}
{"Compound": "CCC1(O)CCCN(C(=O)c2ccc(-c3ccc(F)c(NC(=O)CCl)c3)cc2)C1 (stereo not shown)", "target": "DNA dC->dU-editing enzyme APOBEC-3B, C-terminal domain (Homo sapiens, UniProt Q9UH17)", "assay": "covalent modifier, intact protein mass spectrometry, measured: adduct +26104 Da", "setting": "500 µM, 1 h, 20-fold molar excess", "quantity": "protein adduct", "value": "5.5%"}
{"Compound": "C=CC(=O)N1CCC[C@@H](n2nc(-c3ccc(Oc4ccccc4)cc3)c3c(N)ncnc32)C1", "target": "ABL2 (Homo sapiens, UniProt P42684)", "setting": "1 µM", "quantity": "remaining activity", "value": "352%"}
{"Compound": "CC[C@@H]1[C@H](F)C(=O)N[C@@H]1COc1nccc2cc(C(N)=O)c(OC)cc12", "target": "MAST3 (Homo sapiens, UniProt O60307)", "assay": "ATP-site probe binding, ActivX profiling", "system": "THP-1 cell lysate", "setting": "0.2 mM, Lys2 site", "quantity": "inhibition", "value": "2.6%"}
{"Compound": "C[C@H](CCCOc1cccc(CO)c1)[C@H]1CC[C@H]2[C@@H]3CC=C4C[C@@H](O)CC[C@]4(C)[C@H]3CC[C@]12C", "target": "NR1H2 (Homo sapiens, UniProt P55055)", "assay": "reporter gene, GAL4-LBD transactivation", "system": "HepG2", "quantity": "efficacy", "value": "13.9 ± 0.6%"}
{"Compound": "O=c1cc(N2CCOCC2)oc2c1ccc1ccccc12", "target": "TRPM8", "assay": "antagonist", "system": "HEK293", "setting": "5 µM", "how to read": "relative to: control", "quantity": "remaining activity", "value": "101 ± 9.31%"}
{"Compound": "CC(C)(C)c1cnc(CSc2cnc(NC(=O)C3CCN(C(=O)CCCCCCCN4Cc5cc6c(cc5C4)C(=O)N(C4CCC(=O)NC4=O)C6=O)CC3)s2)o1 (stereo not shown)", "target": "CDK9 (Homo sapiens, UniProt P50750)", "assay": "degrader, Western blot", "system": "TC-71", "setting": "20 nM, 4 h, with: pretreatment with MG132, MLN4924 or thalidomide 2 h", "quantity": "CDK9 degradation", "value": "inhibited"}
{"Compound": "CCn1c(NC(=O)Nc2ccccc2C)nc2ccccc21", "target": "3-oxoacyl-[acyl-carrier-protein] reductase FabG (fabG, Pseudomonas aeruginosa, UniProt O54438)", "assay": "enzyme activity, inhibitor, NADPH fluorescence", "setting": "reverse reaction, with: 3-OH-decanoyl-NAC, NADP", "quantity": "Hill slope", "value": 0.9}
{"Compound": "O=C(COc1ccc(Cl)cc1Cl)NCc1cccs1", "target": "Kir3.1/Kir3.2", "assay": "activator, thallium flux", "system": "HEK293", "setting": "concentration not given", "quantity": "activity", "value": "inactive"}
{"Compound": "N[C@@](CCCCB(O)O)(C(=O)O)C1CCN(Cc2ccc(Cl)c(Cl)c2)CC1 (racemic)", "target": "Arginase (Schistosoma mansoni, UniProt Q6WVP6)", "assay": "isothermal titration calorimetry", "setting": "concentration not given", "quantity": "binding stoichiometry", "value": "2.29 ± 0.02"}
{"Compound": "O=C(COc1ccc(Cl)cc1Cl)Nc1cc(C2CCC2)nn1C1CCOCC1", "target": "Kir3.1/Kir3.2", "assay": "thallium flux, activator", "system": "HEK293", "how to read": "relative to: standard compound", "quantity": "Emax", "value": "45%"}
{"Compound": "N[C@@H](Cc1ccccc1)C(=O)O", "target": "ADRB1 (Homo sapiens, UniProt P08588)", "system": "HEK293 expressing β1AR", "setting": "10 µM", "quantity": "cAMP level", "value": "23.7 pmol/mg protein and 16.8 pmol/mg protein and 20.6 pmol/mg protein and 21.1 pmol/mg protein and 18.3 pmol/mg protein and 18.5 pmol/mg protein"}
{"Compound": "Nc1ccc(C(=O)O)cc1", "target": "BEST1, with wild-type BEST1 (Homo sapiens, UniProt O76090, A10T)", "assay": "whole-cell patch clamp", "system": "HEK293 co-expressing WT and A10T mutant", "setting": "concentration not given, membrane potential -60 mV", "quantity": "current density", "value": "-18.1 pA/pF and -12.5 pA/pF and -8.44 pA/pF and -5.77 pA/pF and -16.8 pA/pF and -29.5 pA/pF"}
{"Compound": "COc1cccc(-n2nc3c4cc(Cl)ccc4[nH]cc-3c2=O)c1", "target": "Gamma-aminobutyric acid receptor subunit alpha-4/beta-3, with delta subunit (Rattus norvegicus, UniProt P28471+P63079)", "assay": "modulator, two-electrode voltage clamp", "system": "α4β3δ receptor", "setting": "10 nM, with: GABA EC3-10", "how to read": "relative to: GABA alone", "quantity": "GABA current", "value": "99 ± 1.4%"}
{"Compound": "O=C(COP(=O)(O)O)[C@@H](O)[C@H](O)[C@H](O)COP(=O)(O)O", "target": "PGM1 (Homo sapiens, UniProt P36871)", "setting": "0.5 mM, unit not given", "how to read": "relative to: activity at 0 mM set to 100", "quantity": "enzyme activity", "value": "89.3 and 89.7 and 90.3"}
{"Compound": "CCOc1ccc(-c2nc(CNCCc3ccc(F)cc3)cs2)cc1", "target": "GAP50", "assay": "binding, surface plasmon resonance", "setting": "1:1 binding model", "quantity": "koff", "value": "0.28 s⁻¹"}
{"Compound": "c1coc(-c2n[nH]cc2-c2ccnc3ccccc23)c1", "target": "Serine/threonine-protein kinase PKH2 (Candida albicans, UniProt Q5A3P6)", "assay": "kinase binding, MIB/MS competition", "system": "Candida albicans lysate", "setting": "10 µM", "how to read": "relative to: DMSO, negative = stronger binding", "quantity": "log2 fold change", "value": -0.13}
{"Compound": "COc1ccc(CN)cc1", "target": "Maoa", "setting": "pKa-corrected", "quantity": "log Kd", "value": "-6.4 M"}
{"Compound": "Cc1cc2c(c(=O)[nH]1)C(=O)O/C2=C\\c1ccc(Br)cc1OC(C)C", "target": "Dual specificity calcium/calmodulin-dependent 3',5'-cyclic nucleotide phosphodiesterase 1C, isoform PDE1C2 (PDE1C, Homo sapiens, UniProt Q14123)", "assay": "enzyme activity, inhibitor", "setting": "with: 3H-cGMP substrate", "quantity": "ligand efficiency", "value": 0.34}
{"Compound": "CC(C)(C)CCNc1cc(=O)[nH]c(=O)[nH]1", "target": "FFAR4", "assay": "β-arrestin recruitment", "system": "CHO", "setting": "10 µM", "how to read": "relative to: 30 µM TUG-891", "quantity": "agonist effect", "value": "1%"}
{"Compound": "NC(=O)NOCCCCCCCCCCCCCC[P+](c1ccccc1)(c1ccccc1)c1ccccc1.O=C([O-])C(F)(F)F", "target": "NADH dehydrogenase [ubiquinone] iron-sulfur protein 7, mitochondrial/NADH dehydrogenase [ubiquinone] iron-sulfur protein 2, mitochondrial/MT-ND1", "assay": "complex I-dependent respiration, Seahorse XF96", "system": "HCT-116", "setting": "10 µM, 24 h", "how to read": "relative to: control", "quantity": "oxygen consumption rate", "value": "7.14 ± 12.6%"}
{"Compound": "O=c1cc(NCCc2c[nH]c3ccccc23)[nH]c(=O)[nH]1", "target": "FFAR4", "assay": "antagonist, β-arrestin recruitment", "system": "CHO cells", "setting": "10 µM", "quantity": "inhibition", "value": "14 ± 6%"}
{"Compound": "COc1ccc([C@@H]2CC(c3cccs3)=NN2C(=O)c2ccco2)cc1OC", "target": "GAP50", "assay": "binding, surface plasmon resonance", "setting": "1:1 binding model", "quantity": "koff", "value": "1.22 s⁻¹"}
{"Compound": "O=c1cc(NCCc2cccs2)[nH]c(=O)[nH]1", "target": "FFAR4", "assay": "agonist, β-arrestin recruitment", "system": "CHO cells", "setting": "10 µM", "quantity": "activation", "value": "0%"}
{"Compound": "CC(=O)Nc1ccc(O)cc1", "target": "BRD4 (Homo sapiens, UniProt O60885)", "assay": "19F NMR, measured: tyrosine 65", "setting": "1470 µM", "how to read": "relative to: free protein", "quantity": "chemical shift change", "value": "0.013 ppm"}
{"Compound": "CCCCCCN(C)c1cc(=O)[nH]c(=O)[nH]1", "target": "FFAR4", "assay": "antagonist, β-arrestin recruitment", "system": "CHO cells", "setting": "10 µM", "quantity": "inhibition", "value": "16 ± 13%"}
{"Compound": "COc1cc2c(cc1O)[C@@H](Cc1ccc(O)cc1)[N+](C)(C)CC2", "target": "GAP50", "assay": "binding, surface plasmon resonance", "setting": "1:1 binding model", "quantity": "koff", "value": "0.0116 s⁻¹"}
{"note": "Excerpt of the above:"}
{"Compound": "CC[C@@H]1[C@H](F)C(=O)N[C@@H]1COc1nccc2cc(C(N)=O)c(OC)cc12", "target": "MAST3 (Homo sapiens, UniProt O60307)", "assay": "ATP-site probe binding, ActivX profiling", "system": "THP-1 cell lysate", "setting": "0.2 mM, Lys2 site", "quantity": "inhibition", "value": "2.6%"}
{"Compound": "C[C@H](CCCOc1cccc(CO)c1)[C@H]1CC[C@H]2[C@@H]3CC=C4C[C@@H](O)CC[C@]4(C)[C@H]3CC[C@]12C", "target": "NR1H2 (Homo sapiens, UniProt P55055)", "assay": "reporter gene, GAL4-LBD transactivation", "system": "HepG2", "quantity": "efficacy", "value": "13.9 ± 0.6%"}
